Published values of several laboratories.
Each line is one published result; not all experiments were run side by side. Numbers after ± are the reported error.

SMILES	medium	concentration	temperature	setting	quantity	value
COC(=O)[C@H](CSSC[C@H](NC(=O)[C@H](Cc1ccccc1)NC(=O)[C@H](Cc1ccccc1)NC(=O)OC(C)(C)C)C(=O)OC)NC(=O)[C@H](Cc1ccccc1)NC(=O)[C@H](Cc1ccccc1)NC(=O)OC(C)(C)C	aqueous solution			pH range 2 to 12	pH of maximum emission	7
C[N+](C)(C)CCO.O=C([O-])[C@@H](O)Cc1ccccc1	water	concentration not given			pH	8.78 ± 1.4
Cn1c(=O)c2c(nc(N3CCNCC3)n2C)n(C)c1=O	water	10 mM	25 °C		pH	~12.5
Nc1ccn(CC(=O)N[C@@H](Cc2ccccc2)C(=O)N[C@@H](Cc2ccccc2)C(=O)N[C@H]2C(O)O[C@H](CO)[C@@H](O)[C@@H]2O)c(=O)n1 (some centres unmarked)	water	3.0 wt%		pH-triggered gelation	pH of hydrogelation	~7.5
O=C([O-])c1ccc(P(c2ccccc2)c2ccccc2)cc1.O=C([O-])c1ccc(P(c2ccccc2)c2ccccc2)cc1.[Ti+4].c1cc[cH-]c1.c1cc[cH-]c1	DMSO/water 1:99	5 x 10 µM			pH	5.32
C[N+](C)(C)C[C@@H](O)CC(=O)O.O=C([O-])[C@@H](O)Cc1ccccc1	water	concentration not given			pH	3.87 ± 0.4
Nc1nc2c(ncn2CC(=O)N[C@@H](Cc2ccccc2)C(=O)N[C@@H](Cc2ccccc2)C(=O)N[C@H]2C(O)O[C@H](CO)[C@@H](O)[C@@H]2O)c(=O)[nH]1 (some centres unmarked)	water	3.0 wt%		pH-triggered gelation	pH of hydrogelation	~4
Cc1ccc(C(C)C)cc1.O=C(N=P(c1ccccc1)(c1ccccc1)c1ccccc1)c1ccccn1.[Cl-].[Cl-].[Ru+2]	water	5 × 10 µM			pH	5.76
